Assay results gathered from unrelated publications.
Compare with care: the assays were run in different laboratories. ± marks the error that the study gave.
PTPN3: Tyrosine-protein phosphatase non-receptor type 3 (PTPN3, Homo sapiens, UniProt P26045)
OPRL1: Nociceptin receptor (OPRL1, Homo sapiens, UniProt P41146)
Secreted effector protein C403A/D356A: Secreted effector protein (Yersinia pestis, UniProt O68720, C403A/D356A)

Sequences of proteins named here, by UniProt entry; tags and fusion partners are left off. A line that says so, or that is headed by a name, gives the form on record, which may keep a tag or linker. Residues count along the entry.
UniProt P26045, 646-901 limits assumed: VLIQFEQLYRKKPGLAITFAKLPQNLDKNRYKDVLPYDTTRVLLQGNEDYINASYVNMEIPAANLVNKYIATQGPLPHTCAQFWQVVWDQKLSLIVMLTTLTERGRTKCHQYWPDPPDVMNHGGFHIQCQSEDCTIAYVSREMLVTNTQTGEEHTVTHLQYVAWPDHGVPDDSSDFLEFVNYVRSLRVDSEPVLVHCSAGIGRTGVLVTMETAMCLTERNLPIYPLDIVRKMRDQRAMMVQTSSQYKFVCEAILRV
UniProt P41146, whole entry: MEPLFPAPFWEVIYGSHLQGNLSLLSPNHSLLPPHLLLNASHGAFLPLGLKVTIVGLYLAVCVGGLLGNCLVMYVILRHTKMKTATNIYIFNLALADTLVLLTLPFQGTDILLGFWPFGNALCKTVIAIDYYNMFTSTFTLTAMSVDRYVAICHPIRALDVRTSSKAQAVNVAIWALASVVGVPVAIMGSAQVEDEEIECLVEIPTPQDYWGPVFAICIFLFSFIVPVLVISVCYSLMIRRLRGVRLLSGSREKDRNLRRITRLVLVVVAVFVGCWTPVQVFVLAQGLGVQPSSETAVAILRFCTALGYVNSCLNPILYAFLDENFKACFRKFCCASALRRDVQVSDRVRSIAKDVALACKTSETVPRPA
UniProt P15390, whole entry: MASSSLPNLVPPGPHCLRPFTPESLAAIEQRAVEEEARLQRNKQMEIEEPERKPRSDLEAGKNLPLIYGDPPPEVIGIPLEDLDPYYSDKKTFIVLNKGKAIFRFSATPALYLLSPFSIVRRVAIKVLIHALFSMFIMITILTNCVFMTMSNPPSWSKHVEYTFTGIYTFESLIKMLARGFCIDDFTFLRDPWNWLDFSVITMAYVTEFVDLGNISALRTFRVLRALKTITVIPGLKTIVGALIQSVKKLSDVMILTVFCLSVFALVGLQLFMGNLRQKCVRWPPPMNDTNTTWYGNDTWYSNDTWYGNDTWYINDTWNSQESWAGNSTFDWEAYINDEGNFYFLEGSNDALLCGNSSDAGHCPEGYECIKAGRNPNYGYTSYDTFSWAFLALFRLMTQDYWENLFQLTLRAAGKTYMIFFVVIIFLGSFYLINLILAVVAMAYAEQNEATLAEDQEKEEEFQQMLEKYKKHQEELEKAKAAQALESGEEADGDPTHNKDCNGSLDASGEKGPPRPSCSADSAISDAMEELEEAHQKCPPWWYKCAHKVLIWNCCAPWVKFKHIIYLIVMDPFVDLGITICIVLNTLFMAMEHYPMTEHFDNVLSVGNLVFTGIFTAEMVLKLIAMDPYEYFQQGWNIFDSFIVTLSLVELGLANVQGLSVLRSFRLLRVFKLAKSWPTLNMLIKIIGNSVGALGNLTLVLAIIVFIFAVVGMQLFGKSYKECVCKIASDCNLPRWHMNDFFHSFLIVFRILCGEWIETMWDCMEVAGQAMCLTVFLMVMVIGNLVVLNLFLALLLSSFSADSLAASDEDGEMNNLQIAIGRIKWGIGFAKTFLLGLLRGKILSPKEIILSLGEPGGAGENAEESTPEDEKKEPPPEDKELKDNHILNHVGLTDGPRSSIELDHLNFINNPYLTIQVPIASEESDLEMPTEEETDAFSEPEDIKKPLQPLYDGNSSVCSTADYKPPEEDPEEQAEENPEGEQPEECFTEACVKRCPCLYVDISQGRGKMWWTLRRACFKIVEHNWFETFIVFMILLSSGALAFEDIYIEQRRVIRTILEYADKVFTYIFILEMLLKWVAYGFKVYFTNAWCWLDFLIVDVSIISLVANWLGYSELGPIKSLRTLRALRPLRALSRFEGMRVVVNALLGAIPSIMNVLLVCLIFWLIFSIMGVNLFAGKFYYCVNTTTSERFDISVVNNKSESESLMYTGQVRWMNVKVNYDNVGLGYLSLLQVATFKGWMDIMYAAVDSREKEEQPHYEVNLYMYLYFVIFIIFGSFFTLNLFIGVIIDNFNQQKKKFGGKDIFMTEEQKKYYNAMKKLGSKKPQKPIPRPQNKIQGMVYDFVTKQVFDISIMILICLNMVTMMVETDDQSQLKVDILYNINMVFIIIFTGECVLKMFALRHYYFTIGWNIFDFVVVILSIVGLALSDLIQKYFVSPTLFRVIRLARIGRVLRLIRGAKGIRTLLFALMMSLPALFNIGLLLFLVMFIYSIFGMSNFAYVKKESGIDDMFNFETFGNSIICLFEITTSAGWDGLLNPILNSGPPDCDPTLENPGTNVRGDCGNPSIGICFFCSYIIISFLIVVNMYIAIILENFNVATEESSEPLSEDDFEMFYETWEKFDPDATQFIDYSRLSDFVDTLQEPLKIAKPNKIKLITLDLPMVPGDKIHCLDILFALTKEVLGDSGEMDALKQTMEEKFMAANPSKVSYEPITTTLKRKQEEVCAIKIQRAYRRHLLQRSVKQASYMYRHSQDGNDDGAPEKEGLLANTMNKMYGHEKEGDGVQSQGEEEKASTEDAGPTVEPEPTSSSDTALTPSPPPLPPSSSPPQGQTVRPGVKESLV
UniProt P08104, whole entry: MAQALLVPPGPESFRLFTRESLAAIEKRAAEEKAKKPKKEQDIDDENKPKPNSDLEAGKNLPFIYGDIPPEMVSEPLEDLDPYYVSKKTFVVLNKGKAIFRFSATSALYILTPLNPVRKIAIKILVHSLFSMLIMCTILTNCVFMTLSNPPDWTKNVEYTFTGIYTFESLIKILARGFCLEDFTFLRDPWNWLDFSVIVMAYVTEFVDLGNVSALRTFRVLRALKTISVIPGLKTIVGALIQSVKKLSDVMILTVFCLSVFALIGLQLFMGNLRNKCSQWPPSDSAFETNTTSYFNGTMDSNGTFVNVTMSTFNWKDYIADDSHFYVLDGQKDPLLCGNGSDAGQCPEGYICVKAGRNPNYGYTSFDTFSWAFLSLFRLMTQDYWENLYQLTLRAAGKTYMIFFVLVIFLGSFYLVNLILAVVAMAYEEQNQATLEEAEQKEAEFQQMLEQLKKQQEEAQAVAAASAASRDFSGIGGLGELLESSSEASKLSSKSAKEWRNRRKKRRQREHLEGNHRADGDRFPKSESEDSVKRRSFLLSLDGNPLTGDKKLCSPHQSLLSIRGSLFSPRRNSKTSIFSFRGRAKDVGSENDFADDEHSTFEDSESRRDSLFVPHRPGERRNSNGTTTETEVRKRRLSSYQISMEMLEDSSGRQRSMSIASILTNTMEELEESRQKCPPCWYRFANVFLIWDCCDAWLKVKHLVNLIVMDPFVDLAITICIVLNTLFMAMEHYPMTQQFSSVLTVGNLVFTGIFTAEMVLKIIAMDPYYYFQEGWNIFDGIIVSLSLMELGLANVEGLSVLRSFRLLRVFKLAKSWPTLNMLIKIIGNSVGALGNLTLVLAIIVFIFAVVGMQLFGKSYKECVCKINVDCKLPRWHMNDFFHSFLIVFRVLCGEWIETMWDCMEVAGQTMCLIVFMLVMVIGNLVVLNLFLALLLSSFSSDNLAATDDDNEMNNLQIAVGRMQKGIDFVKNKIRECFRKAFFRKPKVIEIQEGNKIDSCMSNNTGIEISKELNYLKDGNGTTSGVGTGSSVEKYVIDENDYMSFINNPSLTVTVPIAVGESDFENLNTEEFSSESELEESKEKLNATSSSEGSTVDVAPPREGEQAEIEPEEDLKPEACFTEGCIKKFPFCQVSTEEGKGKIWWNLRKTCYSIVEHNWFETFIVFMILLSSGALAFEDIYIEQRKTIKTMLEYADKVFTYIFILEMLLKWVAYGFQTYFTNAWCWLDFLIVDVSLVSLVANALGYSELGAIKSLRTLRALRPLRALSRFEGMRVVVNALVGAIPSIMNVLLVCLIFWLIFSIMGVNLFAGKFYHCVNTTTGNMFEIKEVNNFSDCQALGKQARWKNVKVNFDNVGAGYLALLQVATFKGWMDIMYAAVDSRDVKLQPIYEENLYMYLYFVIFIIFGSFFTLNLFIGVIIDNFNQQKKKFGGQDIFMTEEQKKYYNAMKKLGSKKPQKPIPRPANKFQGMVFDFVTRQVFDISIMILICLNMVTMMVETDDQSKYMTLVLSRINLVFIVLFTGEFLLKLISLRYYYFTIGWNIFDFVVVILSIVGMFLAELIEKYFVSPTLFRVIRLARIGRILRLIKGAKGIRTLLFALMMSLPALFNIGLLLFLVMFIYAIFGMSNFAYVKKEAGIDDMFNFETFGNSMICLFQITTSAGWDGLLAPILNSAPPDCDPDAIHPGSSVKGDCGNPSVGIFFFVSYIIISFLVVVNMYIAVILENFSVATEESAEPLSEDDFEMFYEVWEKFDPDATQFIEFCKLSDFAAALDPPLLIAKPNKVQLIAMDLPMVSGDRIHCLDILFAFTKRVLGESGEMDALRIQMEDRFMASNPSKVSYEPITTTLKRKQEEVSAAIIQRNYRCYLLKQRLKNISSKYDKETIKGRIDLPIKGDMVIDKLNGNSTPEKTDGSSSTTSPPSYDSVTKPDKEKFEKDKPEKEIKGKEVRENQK
UniProt P17787, whole entry, looked up: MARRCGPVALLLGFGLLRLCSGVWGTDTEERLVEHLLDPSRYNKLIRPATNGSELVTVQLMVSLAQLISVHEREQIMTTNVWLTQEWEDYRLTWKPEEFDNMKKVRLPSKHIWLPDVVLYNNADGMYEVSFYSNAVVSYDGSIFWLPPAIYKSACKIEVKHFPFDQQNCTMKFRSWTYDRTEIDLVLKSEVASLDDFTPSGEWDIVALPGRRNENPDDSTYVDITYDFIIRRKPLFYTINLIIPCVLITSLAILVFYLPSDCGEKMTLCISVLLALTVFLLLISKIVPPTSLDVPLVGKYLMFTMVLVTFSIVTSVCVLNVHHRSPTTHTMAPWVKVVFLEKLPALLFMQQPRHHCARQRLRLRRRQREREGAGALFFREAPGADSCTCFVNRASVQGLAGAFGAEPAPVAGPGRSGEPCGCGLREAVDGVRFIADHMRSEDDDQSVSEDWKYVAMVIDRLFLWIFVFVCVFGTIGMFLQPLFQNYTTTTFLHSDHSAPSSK
UniProt P35372, whole entry: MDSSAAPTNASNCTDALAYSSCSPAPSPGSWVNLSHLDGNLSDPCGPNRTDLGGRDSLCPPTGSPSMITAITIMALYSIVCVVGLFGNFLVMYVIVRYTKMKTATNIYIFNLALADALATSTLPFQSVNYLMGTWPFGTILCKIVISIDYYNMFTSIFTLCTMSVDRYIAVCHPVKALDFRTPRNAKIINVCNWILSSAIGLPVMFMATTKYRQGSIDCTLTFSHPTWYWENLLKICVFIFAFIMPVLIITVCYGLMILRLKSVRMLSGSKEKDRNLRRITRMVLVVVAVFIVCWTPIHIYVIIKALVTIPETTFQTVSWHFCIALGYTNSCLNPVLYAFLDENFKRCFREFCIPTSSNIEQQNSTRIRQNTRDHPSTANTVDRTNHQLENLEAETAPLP
UniProt P08510, 1-655 with tags or gaps DEL6-46: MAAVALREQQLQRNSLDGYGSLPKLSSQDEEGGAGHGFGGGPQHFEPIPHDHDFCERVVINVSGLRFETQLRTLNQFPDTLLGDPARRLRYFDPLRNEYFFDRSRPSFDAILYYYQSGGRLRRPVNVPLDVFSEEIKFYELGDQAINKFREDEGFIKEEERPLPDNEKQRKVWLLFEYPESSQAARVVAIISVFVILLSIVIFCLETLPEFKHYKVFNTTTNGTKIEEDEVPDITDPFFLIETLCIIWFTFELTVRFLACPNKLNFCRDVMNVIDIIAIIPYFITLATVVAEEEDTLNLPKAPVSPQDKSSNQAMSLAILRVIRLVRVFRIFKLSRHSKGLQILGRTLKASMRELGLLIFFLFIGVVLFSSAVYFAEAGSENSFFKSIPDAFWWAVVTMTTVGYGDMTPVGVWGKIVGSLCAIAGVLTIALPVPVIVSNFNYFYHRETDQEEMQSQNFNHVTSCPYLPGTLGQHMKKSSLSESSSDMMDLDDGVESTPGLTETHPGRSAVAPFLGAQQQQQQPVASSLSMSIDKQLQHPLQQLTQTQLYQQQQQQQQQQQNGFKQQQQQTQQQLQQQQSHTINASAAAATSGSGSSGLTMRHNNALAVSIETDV
UniProt O42275, whole entry, looked up: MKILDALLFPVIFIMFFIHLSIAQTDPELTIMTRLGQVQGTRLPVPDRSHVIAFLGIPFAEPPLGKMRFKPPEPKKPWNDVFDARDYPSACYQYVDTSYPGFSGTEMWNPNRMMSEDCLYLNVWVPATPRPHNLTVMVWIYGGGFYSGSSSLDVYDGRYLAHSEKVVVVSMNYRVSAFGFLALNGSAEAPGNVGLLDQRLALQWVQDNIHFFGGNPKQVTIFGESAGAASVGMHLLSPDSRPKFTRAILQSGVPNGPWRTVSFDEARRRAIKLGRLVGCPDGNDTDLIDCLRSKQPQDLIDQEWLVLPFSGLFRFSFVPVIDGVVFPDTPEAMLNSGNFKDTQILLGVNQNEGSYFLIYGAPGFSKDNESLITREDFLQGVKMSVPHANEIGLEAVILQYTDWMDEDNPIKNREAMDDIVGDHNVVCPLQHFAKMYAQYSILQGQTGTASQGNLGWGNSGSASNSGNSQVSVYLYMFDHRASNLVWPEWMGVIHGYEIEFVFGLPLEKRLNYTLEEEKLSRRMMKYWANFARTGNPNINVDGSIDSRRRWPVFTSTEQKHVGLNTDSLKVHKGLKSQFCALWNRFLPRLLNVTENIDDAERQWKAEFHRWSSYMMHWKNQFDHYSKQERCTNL

SMILES	target	test	test system	setting	scale	measurement	result
Cc1ccc(S(=O)(=O)Nc2cccc(C(=O)NC3CCN(c4ncnc5[nH]cnc45)CC3)c2)cc1	Replicase polyprotein 1ab, nsp14 ExoN with nsp10 (rep, Severe acute respiratory syndrome coronavirus 2, UniProt P0DTD1)	ExoN activity		3.125 µM		inhibition	5.18%
CC(=O)N[C@@H](Cc1c[nH]cn1)C(=O)N[C@@H](CC(=O)O)C(=O)NCC(=O)N[C@@H](CC(C)C)C(=O)N[C@@H](Cc1ccc(O)cc1)C(=O)N[C@@H](CCC(N)=O)C(=O)NCC(=O)N[C@@H](CC(C)C)C(=O)N[C@@H](CO)C(=O)N[C@H](C(=O)N[C@@H](C)C(=O)N[C@H](C(=O)N[C@@H](CCCCN)C(=O)N[C@@H](CC(=O)O)C(=O)N[C@H](C(=O)N[C@@H](Cc1cc(=O)oc2cc(OP(=O)(O)O)ccc12)C(=O)N[C@@H](CC(=O)O)C(=O)N[C@@H](C)C(=O)N[C@@H](CC(C)C)C(=O)N[C@@H](Cc1c[nH]cn1)C(N)=O)[C@@H](C)O)[C@@H](C)O)[C@@H](C)O	PTPN3	substrate		pH 6, TCR zeta-chain ITAM peptide		kcat	1.45 s⁻¹
C[C@H](N)C(=O)N[C@H]1CSSC[C@@H]2NC(=O)[C@H](CCCNC(=N)N)NC(=O)[C@H](CO)NC(=O)[C@H](Cc3c[nH]cn3)NC(=O)[C@H](CC(=O)O)NC(=O)[C@H](CCCNC(=N)N)NC(=O)[C@H](C)NC(=O)[C@H](Cc3c[nH]c4ccccc34)NC(=O)[C@H](CCCCN)NC(=O)[C@H](CO)NC(=O)[C@H](CO)NC(=O)[C@H](CSSC[C@@H](C(N)=O)NC2=O)NC(=O)[C@H](CC(N)=O)NC1=O	Scn4a (Rattus norvegicus, UniProt P15390)	sodium current, blocker, two-electrode voltage clamp	Xenopus oocytes	1 µM, 20 min, steady state		block	85 ± 2%
CC(C)[C@H](N)C(=O)NCC(=O)N[C@@H](CCC(=O)O)C(=O)N[C@@H](CCCNC(=N)N)C(=O)N[C@@H](C)C(=O)N[C@H]1CSSC[C@@H]2NC(=O)[C@H](CCCNC(=N)N)NC(=O)[C@H](CO)NC(=O)[C@H](Cc3c[nH]cn3)NC(=O)[C@H](CC(=O)O)NC(=O)[C@H](CCCNC(=N)N)NC(=O)[C@H](C)NC(=O)[C@H](Cc3c[nH]c4ccccc34)NC(=O)[C@H](CCCNC(=N)N)NC(=O)CNC(=O)[C@H](CSSC[C@@H](C(N)=O)NC2=O)NC(=O)CNC(=O)[C@H](CCCNC(=N)N)NC(=O)[C@H](CCCCN)NC(=O)CNC(=O)[C@H](CC(N)=O)NC(=O)[C@H](CCCCN)NC1=O	Scn3a (Rattus norvegicus, UniProt P08104)	sodium current, two-electrode voltage clamp			relative to: analogue over wild-type µ-conotoxin BuIIIB	Kd ratio	79
CC[C@H](C)[C@@H]1NC(=O)[C@H](CCC(=O)O)NC(=O)[C@@H]2CCCN2C(=O)[C@H](Cc2c[nH]cn2)NC(=O)[C@H](CC(=O)O)NC(=O)[C@H](C(C)C)NC(=O)[C@H](CC(N)=O)NC(=O)[C@@H]2CSSC[C@H](NC(=O)[C@H](CCC(N)=O)NC(=O)[C@@H]3CCCN3C(=O)[C@@H](N)CCCNC(=N)N)C(=O)N[C@@H](CSSC[C@@H](C(N)=O)NC1=O)C(=O)N[C@@H](CO)C(=O)N[C@@H](Cc1c[nH]cn1)C(=O)N1CCC[C@H]1C(=O)N[C@@H](C)C(=O)N2	Neuronal acetylcholine receptor; alpha3/beta2 (Homo sapiens, UniProt P17787+P32297)	ACh-evoked current, antagonist, two-electrode voltage clamp	Xenopus oocytes	5 min, pH 7.4, holding potential -70 mV		maximal inhibition	96%
CCCCCCCCN1CC(=O)N[C@@H](Cc2c[nH]c3ccccc23)C(=O)N[C@H]2CSSC[C@H](N)C(=O)N[C@H]3CSSC[C@H](NC(=O)[C@H](CCCNC(=N)N)NC(=O)[C@H](CO)NC(=O)[C@H](Cc4c[nH]cn4)NC(=O)[C@H](CC(=O)O)NC(=O)[C@H](CCCNC(=N)N)NC2=O)C(=O)N[C@H](C(N)=O)CSSC[C@H](NC(=O)[C@H](CC(N)=O)NC3=O)C(=O)N[C@@H](CO)C(=O)N[C@@H](CO)C1=O	Scn2a (Rattus norvegicus, UniProt P04775)	sodium current, blocker, two-electrode voltage clamp	Xenopus oocytes	10 µM		kobs	0.26 ± 0.04 min⁻¹
O=C1Cc2ccccc2N1C1CCN([C@@H]2CC[C@H]3CCCc4cccc2c43)CC1	OPRL1	G protein interaction, BRET	HEK293 membranes		relative to: compound EC50 over N/OFQ EC50	potency ratio	90
CC1=C[C@@H](CN2CCN(c3ncccn3)CC2)[C@H](C(C)C)C[C@H]1Cc1nnc(Cc2c[nH]c3ccccc23)o1	Replicase polyprotein 1ab, nsp4-nsp5-nsp6 precursor (rep, Severe acute respiratory syndrome coronavirus 2, UniProt P0DTD1)	reporter gene, cell-based primary screen				luciferase signal	22.8%
CC(C)[C@H]1CC[C@@H](N2CCC3(CC2)C(=O)NCN3c2ccccc2)CC1	OPRL1	β-arrestin 2 recruitment, BRET	HEK293		relative to: compound EC50 over N/OFQ EC50	potency ratio	63
O=C(O)C(O)=CC(=O)C1(Cc2ccc(Cl)cc2)CCN(C(=O)C=Cc2ccccc2)CC1	Replicase polyprotein 1ab, nsp14 with nsp10 (rep, Severe acute respiratory syndrome coronavirus 2, UniProt P0DTD1)	exonuclease activity, inhibitor		20 µM		inhibition	74%
CC(=O)N[C@@H](Cc1c[nH]cn1)C(=O)N[C@@H](CC(=O)O)C(=O)NCC(=O)N[C@@H](CC(C)C)C(=O)N[C@@H](Cc1cc(=O)oc2cc(OP(=O)(O)O)ccc12)C(=O)N[C@@H](CCC(N)=O)C(=O)NCC(=O)N[C@@H](CC(C)C)C(=O)N[C@@H](CO)C(=O)N[C@H](C(=O)N[C@@H](C)C(=O)N[C@H](C(=O)N[C@@H](CCCCN)C(=O)N[C@@H](CC(=O)O)C(=O)N[C@H](C(=O)N[C@@H](Cc1ccc(OP(=O)(O)O)cc1)C(=O)N[C@@H](CC(=O)O)C(=O)N[C@@H](C)C(=O)N[C@@H](CC(C)C)C(=O)N[C@@H](Cc1c[nH]cn1)C(N)=O)[C@@H](C)O)[C@@H](C)O)[C@@H](C)O	PTPN3	substrate		pH 6, TCR zeta-chain ITAM peptide		kcat	0.33 s⁻¹
CCN(CC)Cc1cc(N)ccc1O	Acetylcholinesterase, VR-inhibited (ACHE, Homo sapiens, UniProt P22303)	enzyme reactivation, reactivator	VR	concentration not given		reactivation rate kr	4.01 ± 2.37 min⁻¹
COC(=O)[C@@H]1C=C(OC(=O)c2ccc(CO)cc2)C(=O)[C@H]2[C@@]1(C)CC[C@H]1C(=O)O[C@H](c3ccoc3)C[C@]21C	OPRM1 (Homo sapiens, UniProt P35372)	agonist			relative to: fentanyl, higher = more potent	potency ratio	> 5
CNC(=O)CC1C(=O)N(C2CCN([C@H]3CC[C@@H](C(C)C)CC3)CC2)c2ccccc21 (stereo partly shown)	OPRL1	G protein activation, GTPγS binding	CHO membranes	concentration not given, unit not given	relative to: compound over N/OFQ Emax	intrinsic activity	0.91
CC[C@H](C)[C@H](NC(=O)[C@H](CC(C)C)NC(=O)[C@H](Cc1ccc(OP(=O)(O)O)cc1)NC(=O)[C@H](CCC(=O)O)NC(=O)[C@H](CC(=O)O)NC(=O)[C@H](C)NC(=O)[C@H](CC(=O)O)NC(=O)[C@@H](NC(=O)[C@H](CC(C)C)NC(=O)CCCC[C@@H]1SC[C@@H]2NC(=O)N[C@@H]21)C(C)C)C(=O)N1CCC[C@H]1C(=O)N[C@@H](CCC(N)=O)C(=O)N[C@@H](CCC(N)=O)C(=O)NCC(=O)O	Secreted effector protein C403A/D356A	surface plasmon resonance				kon	16200 M⁻¹ s⁻¹
CC[C@H](C)[C@@H]1NC(=O)[C@H](CCCNC(=N)N)NC(=O)[C@@H](N)CSSC[C@@H]2NC(=O)[C@@H]3CSSC[C@@H](C(=O)N[C@H](C(=O)O)C(C)C)NC(=O)[C@H](CCCCN)NC(=O)[C@H](CC(N)=O)NC(=O)[C@H](Cc4ccccc4)NC(=O)[C@H](CCCNC(=N)N)NC(=O)[C@H](CC(N)=O)NC(=O)[C@H](CSSC[C@H](NC(=O)[C@H](CCCCN)NC(=O)[C@H](CCC(N)=O)NC(=O)[C@H](CC(N)=O)NC(=O)[C@@H]4C[C@@H](O)CN4C1=O)C(=O)N[C@@H](Cc1ccccc1)C(=O)N[C@@H](CCC(N)=O)C(=O)N[C@@H](Cc1c[nH]cn1)C(=O)N[C@@H](CC(C)C)C(=O)N[C@@H](CC(=O)O)C(=O)N[C@@H](CC(=O)O)C(=O)N3)NC(=O)[C@H](CCCCN)NC(=O)[C@H](CCCNC(=N)N)NC(=O)[C@H](CO)NC2=O	Sh (Drosophila melanogaster, UniProt P08510, del6-46)	potassium current, outside-out patch clamp		500 nM, chronic application, zero voltage, internal K 100, together with: 1 mM TEA		koff	25 ± 3 s⁻¹
Clc1nc2ccccc2cc1/C=N/c1cc(Br)ccn1	Replicase polyprotein 1ab, papain-like protease (rep, Severe acute respiratory syndrome coronavirus 2, UniProt P0DTD1)	enzyme activity, inhibitor		10 µM		inhibition	1.2%
O=C(C1CCNC1)N1CCc2c(F)cc(F)cc21 (stereo not shown)	ache (Electrophorus electricus, UniProt O42275)	enzyme activity, inhibitor, Ellman		120 µM, together with: acetylthiocholine iodide		Vmax	0.082 absorbance units/min
O=P(O)(O)C(F)(F)c1cccc(-c2ccc(CO/N=C/c3ccoc3)cc2)c1	Secreted effector protein C403A/D356A	surface plasmon resonance		immobilized protein		kon	104 M⁻¹ s⁻¹

A few entries again:
SMILES	target	test	test system	setting	scale	measurement	result
CC(=O)N[C@@H](Cc1c[nH]cn1)C(=O)N[C@@H](CC(=O)O)C(=O)NCC(=O)N[C@@H](CC(C)C)C(=O)N[C@@H](Cc1cc(=O)oc2cc(OP(=O)(O)O)ccc12)C(=O)N[C@@H](CCC(N)=O)C(=O)NCC(=O)N[C@@H](CC(C)C)C(=O)N[C@@H](CO)C(=O)N[C@H](C(=O)N[C@@H](C)C(=O)N[C@H](C(=O)N[C@@H](CCCCN)C(=O)N[C@@H](CC(=O)O)C(=O)N[C@H](C(=O)N[C@@H](Cc1ccc(OP(=O)(O)O)cc1)C(=O)N[C@@H](CC(=O)O)C(=O)N[C@@H](C)C(=O)N[C@@H](CC(C)C)C(=O)N[C@@H](Cc1c[nH]cn1)C(N)=O)[C@@H](C)O)[C@@H](C)O)[C@@H](C)O	PTPN3	substrate		pH 6, TCR zeta-chain ITAM peptide		kcat	0.33 s⁻¹
